# Published values from different studies.
# A part holds a random share of what one study measured. “And” joins repeats or separate records; there may be more than shown.
# Sequence of UniProt Q9NQU5 (whole entry, looked up): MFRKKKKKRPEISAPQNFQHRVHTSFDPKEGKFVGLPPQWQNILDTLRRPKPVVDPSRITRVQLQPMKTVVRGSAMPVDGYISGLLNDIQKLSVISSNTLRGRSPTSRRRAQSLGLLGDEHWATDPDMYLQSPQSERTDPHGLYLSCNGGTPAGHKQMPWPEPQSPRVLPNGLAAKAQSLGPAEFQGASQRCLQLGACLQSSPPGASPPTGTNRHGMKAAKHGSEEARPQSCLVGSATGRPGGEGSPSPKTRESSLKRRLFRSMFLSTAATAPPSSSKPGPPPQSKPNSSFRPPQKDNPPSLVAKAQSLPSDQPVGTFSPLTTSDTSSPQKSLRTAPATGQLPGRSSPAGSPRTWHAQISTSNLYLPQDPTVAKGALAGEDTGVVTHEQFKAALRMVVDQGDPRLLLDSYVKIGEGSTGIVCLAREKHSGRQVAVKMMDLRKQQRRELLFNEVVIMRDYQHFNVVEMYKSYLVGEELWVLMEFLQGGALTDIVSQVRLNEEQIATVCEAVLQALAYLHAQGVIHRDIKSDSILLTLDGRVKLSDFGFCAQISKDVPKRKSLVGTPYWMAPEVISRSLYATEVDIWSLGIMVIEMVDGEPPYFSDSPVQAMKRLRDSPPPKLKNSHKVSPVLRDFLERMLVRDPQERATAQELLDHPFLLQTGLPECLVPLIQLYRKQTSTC
# Sequence of UniProt P24723 (whole entry, looked up): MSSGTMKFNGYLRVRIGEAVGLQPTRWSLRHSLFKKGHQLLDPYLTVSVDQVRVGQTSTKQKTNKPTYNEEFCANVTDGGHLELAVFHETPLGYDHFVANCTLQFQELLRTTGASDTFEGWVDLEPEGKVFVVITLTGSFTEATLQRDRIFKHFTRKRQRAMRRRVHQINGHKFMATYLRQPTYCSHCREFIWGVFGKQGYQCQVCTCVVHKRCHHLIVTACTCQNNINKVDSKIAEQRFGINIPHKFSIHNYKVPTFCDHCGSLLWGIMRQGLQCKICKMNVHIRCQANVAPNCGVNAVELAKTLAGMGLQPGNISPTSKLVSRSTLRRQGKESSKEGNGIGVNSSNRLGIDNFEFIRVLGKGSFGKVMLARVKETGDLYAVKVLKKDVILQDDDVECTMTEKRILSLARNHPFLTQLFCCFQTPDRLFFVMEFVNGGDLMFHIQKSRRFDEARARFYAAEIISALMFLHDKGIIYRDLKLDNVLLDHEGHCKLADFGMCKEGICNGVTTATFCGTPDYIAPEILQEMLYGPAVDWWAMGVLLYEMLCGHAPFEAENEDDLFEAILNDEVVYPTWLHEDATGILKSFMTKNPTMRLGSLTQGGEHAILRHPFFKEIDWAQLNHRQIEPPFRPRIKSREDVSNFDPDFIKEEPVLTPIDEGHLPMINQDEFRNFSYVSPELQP
# Sequence of UniProt P49674 (whole entry, looked up): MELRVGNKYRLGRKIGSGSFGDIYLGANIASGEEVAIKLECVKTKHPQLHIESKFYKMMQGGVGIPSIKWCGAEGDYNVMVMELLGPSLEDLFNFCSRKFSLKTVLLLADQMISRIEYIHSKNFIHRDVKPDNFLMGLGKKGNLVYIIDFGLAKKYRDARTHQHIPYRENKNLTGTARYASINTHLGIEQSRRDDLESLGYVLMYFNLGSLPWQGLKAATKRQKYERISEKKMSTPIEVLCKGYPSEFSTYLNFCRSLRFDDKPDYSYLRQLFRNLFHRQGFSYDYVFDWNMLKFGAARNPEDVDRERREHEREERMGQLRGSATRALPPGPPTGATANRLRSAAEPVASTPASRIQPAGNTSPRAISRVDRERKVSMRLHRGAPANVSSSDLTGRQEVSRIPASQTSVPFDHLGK
# Sequence of UniProt Q05513 (whole entry, looked up): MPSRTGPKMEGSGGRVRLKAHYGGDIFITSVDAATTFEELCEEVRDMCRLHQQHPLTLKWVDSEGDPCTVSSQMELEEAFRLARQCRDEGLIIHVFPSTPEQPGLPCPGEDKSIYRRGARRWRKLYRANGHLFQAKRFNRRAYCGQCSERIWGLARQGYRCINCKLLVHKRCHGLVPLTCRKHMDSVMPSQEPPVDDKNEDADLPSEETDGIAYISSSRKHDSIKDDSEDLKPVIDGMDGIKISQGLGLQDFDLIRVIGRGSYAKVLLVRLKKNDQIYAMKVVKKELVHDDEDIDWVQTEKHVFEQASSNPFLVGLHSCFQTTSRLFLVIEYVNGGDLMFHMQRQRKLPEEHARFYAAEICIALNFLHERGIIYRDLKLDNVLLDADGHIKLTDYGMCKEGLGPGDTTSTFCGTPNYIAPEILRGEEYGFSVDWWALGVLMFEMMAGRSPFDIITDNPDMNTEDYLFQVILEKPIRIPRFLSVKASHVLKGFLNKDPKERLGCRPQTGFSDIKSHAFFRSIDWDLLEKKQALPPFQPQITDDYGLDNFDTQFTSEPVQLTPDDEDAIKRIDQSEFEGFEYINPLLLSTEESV

# Study 1 — cell line: mouse MPNST tumor cells; method: high-content nuclear imaging; measured: cell number; concentration: 10 µM; time: 12 h; setting: mean of 2 replicates; baseline: plate mean; reading: higher = more cells
SMILES,nuclei count
COc1cc(N2CCOCC2)ccc1Nc1ncc(Cl)c(Nc2ccccc2NS(C)(=O)=O)n1,1.47 z-score
CCCN[C@H]1CCc2nc(N)sc2C1,1.23 z-score and 0.206 z-score and 1.55 z-score
O=C(O)c1ccc(-c2c[nH]c3ncc(-c4ccccc4)cc23)cc1C1CCCC1,-1.95 z-score
Cc1ccc(C(=O)N(CCCN)[C@@H](c2nc3cc(Cl)ccc3c(=O)n2Cc2ccccc2)C(C)C)cc1,-5.41 z-score
CC(=O)OCC(=O)C1(O)CCC2C3CCC4=CC(=O)CCC4(C)C3C(O)CC21C (stereo not drawn),2.19 z-score
N#Cc1ccc(C(c2ccc(C#N)cc2)n2cncn2)cc1,-0.0585 z-score and -0.13 z-score
Cc1cc(C)cc(OCC2CNC(=O)O2)c1 (stereo not drawn),0.177 z-score
C[C@H]1[C@@H](O)O[C@@H]2O[C@@]3(C)CC[C@H]4[C@H](C)CC[C@@H]1[C@@]24OO3,-3.08 z-score
Clc1ccccc1C(c1ccccc1)(c1ccccc1)n1ccnc1,0.383 z-score and 0.722 z-score
NCc1ccccc1CC(=O)N[C@@H]1C(=O)N2C(C(=O)O)=C(CSc3nnnn3CC(=O)O)CS[C@H]12,-0.692 z-score
Cc1onc(-c2c(F)cccc2Cl)c1C(=O)N[C@@H]1C(=O)N2[C@@H]1SC(C)(C)[C@@H]2C(=O)O,1.66 z-score
CCOC(=O)c1ccc(N(C)c2csc(-c3ccccc3)n2)cc1,-0.0232 z-score
O=C1CN(/N=C/c2ccc(-c3ccc([N+](=O)[O-])cc3)o2)C(=O)N1,-0.341 z-score and -1.02 z-score
C=CC1=C(C(=O)O)N2C(=O)[C@@H](NC(=O)/C(=N\OCC(=O)O)c3csc(N)n3)[C@H]2SC1,-0.343 z-score

# Study 2 — effect on: enzyme activity; mode: inhibitor; concentration: 77 µM; baseline: untreated
# Target: DNA polymerase theta, ATPase domain (POLQ, Homo sapiens, UniProt O75417)
# Sequence of UniProt O75417 (whole entry, unmodified, looked up): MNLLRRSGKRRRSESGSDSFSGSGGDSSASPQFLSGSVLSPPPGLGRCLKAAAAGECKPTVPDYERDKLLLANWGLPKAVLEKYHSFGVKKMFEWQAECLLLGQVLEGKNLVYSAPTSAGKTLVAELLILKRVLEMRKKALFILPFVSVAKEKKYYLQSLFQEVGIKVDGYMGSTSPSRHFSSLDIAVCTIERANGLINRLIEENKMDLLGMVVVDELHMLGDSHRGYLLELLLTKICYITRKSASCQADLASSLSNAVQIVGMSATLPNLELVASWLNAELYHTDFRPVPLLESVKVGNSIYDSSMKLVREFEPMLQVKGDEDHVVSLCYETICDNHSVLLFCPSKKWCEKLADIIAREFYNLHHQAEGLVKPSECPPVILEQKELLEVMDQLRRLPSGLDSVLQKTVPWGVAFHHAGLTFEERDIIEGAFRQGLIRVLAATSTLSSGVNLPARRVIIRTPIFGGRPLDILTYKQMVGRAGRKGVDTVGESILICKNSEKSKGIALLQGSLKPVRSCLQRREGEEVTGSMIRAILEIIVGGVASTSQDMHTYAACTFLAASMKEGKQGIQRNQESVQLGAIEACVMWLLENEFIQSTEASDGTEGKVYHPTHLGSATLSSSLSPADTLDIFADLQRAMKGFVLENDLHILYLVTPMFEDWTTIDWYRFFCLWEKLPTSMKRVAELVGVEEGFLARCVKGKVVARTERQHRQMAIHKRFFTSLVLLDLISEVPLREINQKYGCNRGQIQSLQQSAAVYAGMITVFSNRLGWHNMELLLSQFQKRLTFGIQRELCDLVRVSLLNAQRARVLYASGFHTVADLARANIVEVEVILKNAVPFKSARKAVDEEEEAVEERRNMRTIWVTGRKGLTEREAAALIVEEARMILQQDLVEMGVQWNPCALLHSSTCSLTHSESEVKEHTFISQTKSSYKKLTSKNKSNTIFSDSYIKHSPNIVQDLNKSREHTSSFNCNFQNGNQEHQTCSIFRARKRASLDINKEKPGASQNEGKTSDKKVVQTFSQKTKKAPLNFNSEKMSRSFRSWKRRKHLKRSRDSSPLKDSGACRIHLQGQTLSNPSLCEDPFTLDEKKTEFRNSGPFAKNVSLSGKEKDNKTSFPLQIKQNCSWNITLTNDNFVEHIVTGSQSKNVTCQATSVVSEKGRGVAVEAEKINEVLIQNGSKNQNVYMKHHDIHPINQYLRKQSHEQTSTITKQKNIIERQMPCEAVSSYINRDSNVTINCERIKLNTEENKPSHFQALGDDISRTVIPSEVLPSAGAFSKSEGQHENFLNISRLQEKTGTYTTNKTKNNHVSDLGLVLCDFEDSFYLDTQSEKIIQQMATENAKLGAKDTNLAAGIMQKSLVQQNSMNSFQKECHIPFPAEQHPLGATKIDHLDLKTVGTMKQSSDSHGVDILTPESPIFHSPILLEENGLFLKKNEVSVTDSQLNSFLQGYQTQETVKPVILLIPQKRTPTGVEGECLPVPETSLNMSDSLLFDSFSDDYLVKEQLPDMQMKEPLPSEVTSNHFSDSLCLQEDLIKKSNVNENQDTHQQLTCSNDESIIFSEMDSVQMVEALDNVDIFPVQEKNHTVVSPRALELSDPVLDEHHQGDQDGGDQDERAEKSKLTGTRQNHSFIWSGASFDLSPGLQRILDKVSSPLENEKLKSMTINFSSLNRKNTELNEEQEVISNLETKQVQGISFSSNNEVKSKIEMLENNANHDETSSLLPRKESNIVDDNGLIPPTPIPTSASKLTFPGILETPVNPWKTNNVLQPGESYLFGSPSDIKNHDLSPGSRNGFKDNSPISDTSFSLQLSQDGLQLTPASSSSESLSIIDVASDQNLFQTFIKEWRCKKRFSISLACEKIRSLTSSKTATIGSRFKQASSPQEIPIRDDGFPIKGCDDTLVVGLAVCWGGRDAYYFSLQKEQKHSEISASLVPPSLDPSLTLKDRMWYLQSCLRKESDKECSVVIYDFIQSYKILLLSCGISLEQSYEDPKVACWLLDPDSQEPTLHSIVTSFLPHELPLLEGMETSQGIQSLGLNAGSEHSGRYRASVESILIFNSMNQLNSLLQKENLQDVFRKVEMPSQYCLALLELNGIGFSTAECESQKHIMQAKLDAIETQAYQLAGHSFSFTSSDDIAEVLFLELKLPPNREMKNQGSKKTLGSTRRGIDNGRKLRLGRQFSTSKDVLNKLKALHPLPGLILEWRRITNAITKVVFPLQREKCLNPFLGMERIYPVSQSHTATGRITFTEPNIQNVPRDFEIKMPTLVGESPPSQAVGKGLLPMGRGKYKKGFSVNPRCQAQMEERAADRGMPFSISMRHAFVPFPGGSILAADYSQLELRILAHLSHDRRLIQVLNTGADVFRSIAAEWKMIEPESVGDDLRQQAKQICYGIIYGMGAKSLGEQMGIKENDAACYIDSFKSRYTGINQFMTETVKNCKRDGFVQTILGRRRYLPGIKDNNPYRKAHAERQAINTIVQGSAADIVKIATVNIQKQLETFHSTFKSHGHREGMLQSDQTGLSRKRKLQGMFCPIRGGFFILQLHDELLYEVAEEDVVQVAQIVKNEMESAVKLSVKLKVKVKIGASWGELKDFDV
Structure (SMILES),remaining activity
O=C(O)CP(=O)(O)O,94.3%
COC(=O)[C@H](NC(=O)c1cc(-c2ccccc2)nc2ccccc12)c1ccccc1,102%
CC(=O)Oc1cc2c(s1)CCN(C(C(=O)C1CC1)c1ccccc1F)C2 (stereo not drawn),96.9%
C[C@]12C=CC(=O)C=C1CC[C@@H]1[C@@H]2C(=O)C[C@@]2(C)[C@H]1CC[C@]2(O)C(=O)CO,103% and 95.2%
CCc1ccccc1OC[C@@H](O)CN[C@H]1CCc2ccccc2C1,106%
O=c1[nH]c(=O)n([C@H]2C[C@H](O)[C@@H](CO)O2)cc1C(F)(F)F,90.6% and 102%
NS(=O)(=O)c1cc2c(cc1Cl)N=C(CSCc1ccccc1)NS2(=O)=O,99%
Cc1cc(C(C)(C)CC(C)(C)C)ccc1OCCOCC[N+](C)(C)Cc1ccccc1,106%
NNCCc1ccccc1,104%
CC(N)C12CC3CC(CC(C3)C1)C2 (stereo not drawn),97.8%
Nc1ccc(-c2ccc3ncc4ccc(=O)n(-c5cccc(C(F)(F)F)c5)c4c3c2)cn1,99.1%
O=c1oc2cc(O)ccc2s1,99.5%
CNC(=O)c1cc(COc2nnc(Nc3ccc(Cl)cc3)c3ccoc23)ccn1,104%
OC[C@H]1O[C@H](O[C@]2(CCl)O[C@H](CCl)[C@@H](O)[C@@H]2O)[C@H](O)[C@@H](O)[C@H]1Cl,96.8%
CCCCCCCCCCCCCCCC(=O)O[C@@H]1[C@@H](O)[C@@H](O)[C@@H]([C@H](NC(=O)[C@@H]2C[C@@H](CCC)CN2C)[C@H](C)Cl)O[C@@H]1SC,94.4%
NC[C@H]1O[C@H](O[C@H]2[C@H](O)[C@@H](O[C@H]3O[C@H](CO)[C@@H](O)[C@H](N)[C@H]3O)[C@H](N)C[C@@H]2N)[C@H](O)[C@@H](O)[C@@H]1O,93.7%

# Study 3 — effect on: enzyme activity; mode: inhibitor; concentration: 0.5 µM; baseline: control
# Structure (SMILES): COc1ccc(S(=O)(=O)N(CCO)c2ccccc2CN(C)CC=Cc2ccc(Cl)cc2)cc1
target,remaining activity [%]
"CSNK1D (Homo sapiens, UniProt P48730)",102
"MUSK (Homo sapiens, UniProt O15146)",94.7
"PRKCQ (Homo sapiens, UniProt Q04759)",110
"TEC (Homo sapiens, UniProt P42680)",101
"CAMK1 (Homo sapiens, UniProt Q14012)",105
"TYRO3 (Homo sapiens, UniProt Q06418)",97.1
"RPS6KA3 (Homo sapiens, UniProt P51812)",98
"SGK2 (Homo sapiens, UniProt Q9HBY8)",99.8
"PAK1 (Homo sapiens, UniProt Q13153)",96
"SRPK1 (Homo sapiens, UniProt Q96SB4)",105
"EPHA2 (Homo sapiens, UniProt P29317)",104
"FLT1 (Homo sapiens, UniProt P17948)",94.7
"SIK2 (Homo sapiens, UniProt Q9H0K1)",97.4
"PAK6 (Homo sapiens, UniProt Q9NQU5)",101
"CLK2 (Homo sapiens, UniProt P49760)",96.7
"CAMKK1 (Homo sapiens, UniProt Q8N5S9)",106
"JAK1 (Homo sapiens, UniProt P23458)",111
"CSNK1E (Homo sapiens, UniProt P49674)",105
"EPHA6 (Homo sapiens, UniProt Q9UF33)",95.3
"PRKCZ (Homo sapiens, UniProt Q05513)",100
"CLK1 (Homo sapiens, UniProt P49759)",96.4
"IGF1R (Homo sapiens, UniProt P08069)",103
"MAP3K20 (Homo sapiens, UniProt Q9NYL2)",97
"Cyclin-dependent kinase 2, with cyclin E (CDK2, Homo sapiens, UniProt P24941)",94

# Study 4 — method: competition with immobilised ligand; concentration: 1 µM
# SMILES: Cc1nc(N2CC[C@@H](O)C2)ncc1-c1cc(C(F)(F)F)cc2[nH]ncc12
target,effect on,remaining binding [%]
"PRKCH (Homo sapiens, UniProt P24723)",cell-free assay,94
"ROS1 (Homo sapiens, UniProt P08922)",cell-free assay,86
"SGK3 (Homo sapiens, UniProt Q96BR1)",binding,70
"eIF-2-alpha kinase GCN2, C-terminal kinase domain (EIF2AK4, Homo sapiens, UniProt Q9P2K8, S808G)",binding,76
"PAK6 (Homo sapiens, UniProt Q9NQU5)",cell-free assay,100
"DMPK (Homo sapiens, UniProt Q09013)",binding,80
"TLK1 (Homo sapiens, UniProt Q9UKI8)",cell-free assay,100
"NEK5 (Homo sapiens, UniProt Q6P3R8)",binding,100
"MAP3K11 (Homo sapiens, UniProt Q16584)",binding,100
"FLT3 (Homo sapiens, UniProt P36888, ITD)",binding,100
"CDK8 (Homo sapiens, UniProt P49336)",binding,88
"BTK (Homo sapiens, UniProt Q06187)",cell-free assay,63

# Excerpt of the above (study 1):
SMILES,nuclei count
Cc1onc(-c2c(F)cccc2Cl)c1C(=O)N[C@@H]1C(=O)N2[C@@H]1SC(C)(C)[C@@H]2C(=O)O,1.66 z-score
Clc1ccccc1C(c1ccccc1)(c1ccccc1)n1ccnc1,0.383 z-score and 0.722 z-score
N#Cc1ccc(C(c2ccc(C#N)cc2)n2cncn2)cc1,-0.0585 z-score and -0.13 z-score
O=C1CN(/N=C/c2ccc(-c3ccc([N+](=O)[O-])cc3)o2)C(=O)N1,-0.341 z-score and -1.02 z-score
CC(=O)OCC(=O)C1(O)CCC2C3CCC4=CC(=O)CCC4(C)C3C(O)CC21C (stereo not drawn),2.19 z-score
COc1cc(N2CCOCC2)ccc1Nc1ncc(Cl)c(Nc2ccccc2NS(C)(=O)=O)n1,1.47 z-score
Cc1cc(C)cc(OCC2CNC(=O)O2)c1 (stereo not drawn),0.177 z-score
